Published values pooled from the literature.
Each line is one published result; not all experiments were run side by side. Numbers after ± are the reported error.
Cell line: HCT-116

O=C(CSc1nc2ccccc2c(=O)n1-c1ccc(Cl)cc1)NNC(=O)Nc1ccccc1 — IC50: 9.52 ± 0.8 µM
N=c1c2cnn(C(=O)CNc3ccc(F)cc3)c2ncn1N — IC50 (cell growth or viability, MTT; 48 h): 0.521 µM
Cn1c(=O)c(/C=C/c2ccccc2)nc2ccccc21 — IC50 (cell growth or viability, MTT; 72 h): 7.04 µM
CSC(SC)=C(C#N)C(=O)Nc1nnc(NC(=O)c2ccccc2)s1 — IC50 (cell growth or viability, MTT; 48 h): 14.7 µM
O=C(CNc1ccc(F)cc1)n1ncc2c1ncn1nc(SCC(O)CO)nc21 (centres unmarked) — IC50 (cell growth or viability, MTT; 48 h): 0.664 µM
CCN1CCC2(CC1)C/C(=N\N=C\c1ccc(N(C)C)cc1)c1ccccc1O2 — IC50 (48 h): 56.2 ± 2.39 µM
COc1ccc(-n2c(SCC(=O)NNC(=O)Nc3ccc(C(F)(F)F)cc3Cl)nc3ccccc3c2=O)cc1 — IC50: 85.2 ± 4.5 µM
CCCCCCSc1nnc(-c2ccc(-c3cc(OC)c(OC)c(OC)c3)nc2C)o1 — IC50 (cell growth or viability, MTT): 15.3 µM
N#CC(C(=O)Nc1nnc(NC(=O)c2ccccc2)s1)C(=S)Nc1ccccc1 (centres unmarked) — IC50 (cell growth or viability, MTT; 48 h): 21.6 µM
COc1ccc(-n2c(SCC(=O)NNC(=O)NCc3ccccc3)nc3ccccc3c2=O)cc1 — IC50: 91.2 ± 4.9 µM
CN1CCN(c2nc3ccccc3nc2/C=C/c2ccccc2F)CC1 — IC50 (cell growth or viability, MTT; 72 h): 1.11 µM
COc1ccc(NC(=O)NNC(=O)CSc2nc3ccccc3c(=O)n2-c2ccc(C)cc2)cc1 — IC50: 74.6 ± 4.1 µM
N#CC(=Cc1ccc([N+](=O)[O-])cc1)C(=O)Nc1nnc(NC(=O)c2ccccc2)s1 — IC50 (cell growth or viability, MTT; 48 h): 51.4 µM
Cc1ccc(-n2c(SCC(=O)NNC(=O)Nc3ccc(C(F)(F)F)cc3Cl)nc3ccccc3c2=O)cc1 — IC50: 45 ± 2.5 µM
N#CCC(=O)Nc1nnc(NC(=O)c2ccccc2)s1 — IC50 (cell growth or viability, MTT; 48 h): 25.7 µM
COc1ccccc1/C=N/NC(=O)c1ccc(-c2cc(OC)c(OC)c(OC)c2)nc1C — IC50 (cell growth or viability, MTT): 7.19 µM
O=c1c(O)c(-c2ccc(O)c(O)c2)oc2cc(O)cc(O)c12 — IC50 (cell growth or viability, MTT; 48 h): 36 µg/mL
CC(=O)c1nc2ccccc2n1Cc1cn([C@@H]2OC[C@@H](O)[C@H](O)[C@H]2O)nn1 — IC50 (cell growth or viability, LDH; 48 h): 5.7 µM
CN(C)C/C=C/C(=O)Nc1cc2c(Nc3ccc(F)c(Cl)c3)ncnc2cc1O[C@H]1CCOC1 — IC50 (48 h): 10 ± 0.47 µM
O=c1[nH]c2ccccc2nc1/C=C/c1ccc2ccccc2c1 — IC50 (cell growth or viability, MTT; 72 h): 17.9 µM
N#CC(C(=O)Nc1nnc(NC(=O)c2ccccc2)s1)=C1SCCN1c1ccccc1 — IC50 (cell growth or viability, MTT; 48 h): 40.2 µM
CC1(C)CC[C@]2(C(=O)O)CC[C@]3(C)C(=CC[C@@H]4[C@@]5(C)CC[C@H](O)C(C)(C)[C@@H]5CC[C@]43C)[C@@H]2C1 — IC50 (cell growth or viability, resazurin; 96 h): 2.33 µg/mL
O=C(Nc1nnc(NC(=O)c2cc3ccccc3oc2=O)s1)c1ccccc1 — IC50 (cell growth or viability, MTT; 48 h): 47.2 µM
CN(C)C/C=C/C(=O)Nc1cccc(S(=O)(=O)N2CCC(NC(=O)c3n[nH]cc3NC(=O)c3c(Cl)cccc3Cl)CC2)c1 — IC50 (cell growth or viability, ATP luminescence; 72 h): 0.0051 µM
COc1ccc(-c2cc(-c3ccc(Cl)cc3)c3c(=O)[nH]c(=O)[nH]c3n2)cc1 — IC50 (cell growth or viability, MTT; 48 h): < 5 µM
N#CC(C(=O)Nc1nnc(NC(=O)c2ccccc2)s1)=C1Oc2cccnc2O1 — IC50 (cell growth or viability, MTT; 48 h): 18.3 µM
Cc1ccc(-n2c(SCC(=O)NNC(=O)NCc3ccccc3)nc3ccccc3c2=O)cc1 — IC50: 6.72 ± 0.3 µM
CC(=O)OCC(CSc1nc2c3cnn(C(=O)CNc4ccc(C)cc4)c3ncn2n1)OC(C)=O (centres unmarked) — IC50 (cell growth or viability, MTT; 48 h): 0.091 µM
Cc1ccc(C(C)C)cc1.Cc1ccc(C(C)C)cc1.[Cl][Ru][Cl].[Cl][Ru][Cl] — IC50 (cell growth or viability, trypan blue; 48 h): 73.7 µM
COc1cc(-c2ccc(-c3nnc(SC)o3)c(C)n2)cc(OC)c1OC — IC50 (cell growth or viability, MTT): 14.1 µM
O=C(CSc1nc2ccccc2c(=O)n1-c1ccc(Cl)cc1)NNC(=O)Nc1ccc(C(F)(F)F)cc1Cl — IC50: 28.8 ± 2.1 µM
COc1c(-c2ccc(O)c(O)c2)oc2cc(O)cc(O)c2c1=O — IC50 (cell growth or viability, MTT; 48 h): 34 µg/mL
O=c1c(/C=C/c2ccccc2Br)nc2ccccc2n1Cc1ccccc1 — IC50 (cell growth or viability, MTT; 72 h): > 50 µM
COc1ccc(C=C(C#N)C(=O)Nc2nnc(NC(=O)c3ccccc3)s2)cc1 — IC50 (48 h): 8.15 ± 0.7 µM
COc1cc(-c2ccc(C(=O)N/N=C/c3cc(Cl)ccc3Cl)c(C)n2)cc(OC)c1OC — IC50 (cell growth or viability, MTT): 21.2 µM
Cc1ccc(NCC(=O)n2ncc3c2ncn2nc(SCCO)nc32)cc1 — IC50 (cell growth or viability, MTT; 48 h): 0.099 µM
O=c1[nH]c2ccccc2nc1/C=C/c1cccs1 — IC50 (cell growth or viability, MTT; 72 h): 31.1 µM
Cc1ccc(NCC(=O)n2ncc3c(=N)n(N[C@@H]4OC[C@@H](O)[C@H](O)[C@H]4O)cnc32)cc1 — IC50 (cell growth or viability, MTT; 48 h): 0.099 µM
O=c1[nH]c2ccccc2nc1/C=C/c1ccccc1F — IC50 (cell growth or viability, MTT; 72 h): > 50 µM
COc1ccc(-n2c(SC/C(=N/O)c3ccc(Cl)cc3)nnc2-c2nnn(-c3ccc(S(N)(=O)=O)cc3)c2C)cc1 — IC50 (cell growth or viability, MTT; 48 h): 9.9 µM
O=c1[nH]c2ccccc2nc1/C=C/c1ccc(C(F)(F)F)cc1 — IC50 (cell growth or viability, MTT; 72 h): > 50 µM
COc1cc(-c2ccc(C(=O)N/N=C/c3cc(C)ccc3C)c(C)n2)cc(OC)c1OC — IC50 (cell growth or viability, MTT): 5.2 µM
O=c1[nH]c2ccccc2nc1/C=C/c1ccco1 — IC50 (cell growth or viability, MTT; 72 h): > 50 µM
N=c1c2cnn(C(=O)CNc3ccc(F)cc3)c2ncn1N[C@@H]1O[C@H](CO)[C@@H](O)[C@H](O)[C@H]1O — IC50 (cell growth or viability, MTT; 48 h): 0.503 µM

Repeated from above:
N#CC(=Cc1ccc([N+](=O)[O-])cc1)C(=O)Nc1nnc(NC(=O)c2ccccc2)s1 — IC50 (cell growth or viability, MTT; 48 h): 51.4 µM
O=c1c(O)c(-c2ccc(O)c(O)c2)oc2cc(O)cc(O)c12 — IC50 (cell growth or viability, MTT; 48 h): 36 µg/mL
COc1ccc(-n2c(SCC(=O)NNC(=O)Nc3ccc(C(F)(F)F)cc3Cl)nc3ccccc3c2=O)cc1 — IC50: 85.2 ± 4.5 µM
O=c1[nH]c2ccccc2nc1/C=C/c1ccccc1F — IC50 (cell growth or viability, MTT; 72 h): > 50 µM
COc1cc(-c2ccc(-c3nnc(SC)o3)c(C)n2)cc(OC)c1OC — IC50 (cell growth or viability, MTT): 14.1 µM
O=c1[nH]c2ccccc2nc1/C=C/c1ccco1 — IC50 (cell growth or viability, MTT; 72 h): > 50 µM
O=c1c(/C=C/c2ccccc2Br)nc2ccccc2n1Cc1ccccc1 — IC50 (cell growth or viability, MTT; 72 h): > 50 µM
